Assay results collected from several papers.
Numbered parts are unrelated; each lists some results of a single study.
Chain of UniProt P08069 (whole entry, looked up): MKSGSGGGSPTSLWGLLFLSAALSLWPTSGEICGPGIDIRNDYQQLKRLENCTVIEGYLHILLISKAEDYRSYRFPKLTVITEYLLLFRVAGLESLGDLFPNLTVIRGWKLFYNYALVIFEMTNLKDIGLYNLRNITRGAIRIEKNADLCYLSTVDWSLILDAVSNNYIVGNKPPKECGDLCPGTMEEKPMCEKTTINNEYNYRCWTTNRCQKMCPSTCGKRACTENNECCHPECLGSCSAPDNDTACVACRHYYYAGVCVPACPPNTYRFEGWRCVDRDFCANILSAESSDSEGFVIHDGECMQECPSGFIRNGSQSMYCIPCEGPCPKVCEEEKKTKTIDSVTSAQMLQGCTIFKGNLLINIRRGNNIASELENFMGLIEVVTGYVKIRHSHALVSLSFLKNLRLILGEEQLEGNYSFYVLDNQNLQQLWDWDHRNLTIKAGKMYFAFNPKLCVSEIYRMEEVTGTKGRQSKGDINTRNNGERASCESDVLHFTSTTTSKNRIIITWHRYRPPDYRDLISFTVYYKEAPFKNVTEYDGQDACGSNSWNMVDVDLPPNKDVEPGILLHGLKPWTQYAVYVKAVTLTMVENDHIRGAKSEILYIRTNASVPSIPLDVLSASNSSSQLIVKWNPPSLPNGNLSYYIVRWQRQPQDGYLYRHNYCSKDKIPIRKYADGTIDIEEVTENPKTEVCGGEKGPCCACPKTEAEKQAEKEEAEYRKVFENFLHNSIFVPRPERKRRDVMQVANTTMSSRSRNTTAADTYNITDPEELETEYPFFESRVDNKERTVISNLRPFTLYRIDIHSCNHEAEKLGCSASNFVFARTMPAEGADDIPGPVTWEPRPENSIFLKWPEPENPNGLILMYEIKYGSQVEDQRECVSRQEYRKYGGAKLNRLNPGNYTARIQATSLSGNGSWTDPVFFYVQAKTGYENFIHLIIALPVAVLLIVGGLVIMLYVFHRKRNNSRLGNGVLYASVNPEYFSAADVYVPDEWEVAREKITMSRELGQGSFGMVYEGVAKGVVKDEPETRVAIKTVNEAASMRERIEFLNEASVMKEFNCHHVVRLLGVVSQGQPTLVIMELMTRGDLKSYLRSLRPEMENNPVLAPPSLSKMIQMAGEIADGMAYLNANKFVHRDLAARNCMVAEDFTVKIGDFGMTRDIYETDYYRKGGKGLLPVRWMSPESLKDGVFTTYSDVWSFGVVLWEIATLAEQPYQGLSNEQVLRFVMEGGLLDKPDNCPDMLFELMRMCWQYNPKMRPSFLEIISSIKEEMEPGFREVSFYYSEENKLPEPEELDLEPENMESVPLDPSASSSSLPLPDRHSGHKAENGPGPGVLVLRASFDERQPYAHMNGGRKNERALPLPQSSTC
Chain of UniProt Q9BXA7 (whole entry, looked up): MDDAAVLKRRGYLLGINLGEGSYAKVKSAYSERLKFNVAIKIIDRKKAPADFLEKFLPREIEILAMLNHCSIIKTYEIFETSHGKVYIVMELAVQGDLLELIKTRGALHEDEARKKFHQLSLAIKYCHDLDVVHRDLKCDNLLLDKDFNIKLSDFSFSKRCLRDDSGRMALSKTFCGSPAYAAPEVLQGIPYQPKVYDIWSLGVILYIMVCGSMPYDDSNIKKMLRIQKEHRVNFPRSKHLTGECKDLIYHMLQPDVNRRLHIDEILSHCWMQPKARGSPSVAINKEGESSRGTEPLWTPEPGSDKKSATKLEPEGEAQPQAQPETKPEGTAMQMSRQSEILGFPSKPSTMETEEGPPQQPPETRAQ
Chain of UniProt P15056 (whole entry, unmodified, looked up): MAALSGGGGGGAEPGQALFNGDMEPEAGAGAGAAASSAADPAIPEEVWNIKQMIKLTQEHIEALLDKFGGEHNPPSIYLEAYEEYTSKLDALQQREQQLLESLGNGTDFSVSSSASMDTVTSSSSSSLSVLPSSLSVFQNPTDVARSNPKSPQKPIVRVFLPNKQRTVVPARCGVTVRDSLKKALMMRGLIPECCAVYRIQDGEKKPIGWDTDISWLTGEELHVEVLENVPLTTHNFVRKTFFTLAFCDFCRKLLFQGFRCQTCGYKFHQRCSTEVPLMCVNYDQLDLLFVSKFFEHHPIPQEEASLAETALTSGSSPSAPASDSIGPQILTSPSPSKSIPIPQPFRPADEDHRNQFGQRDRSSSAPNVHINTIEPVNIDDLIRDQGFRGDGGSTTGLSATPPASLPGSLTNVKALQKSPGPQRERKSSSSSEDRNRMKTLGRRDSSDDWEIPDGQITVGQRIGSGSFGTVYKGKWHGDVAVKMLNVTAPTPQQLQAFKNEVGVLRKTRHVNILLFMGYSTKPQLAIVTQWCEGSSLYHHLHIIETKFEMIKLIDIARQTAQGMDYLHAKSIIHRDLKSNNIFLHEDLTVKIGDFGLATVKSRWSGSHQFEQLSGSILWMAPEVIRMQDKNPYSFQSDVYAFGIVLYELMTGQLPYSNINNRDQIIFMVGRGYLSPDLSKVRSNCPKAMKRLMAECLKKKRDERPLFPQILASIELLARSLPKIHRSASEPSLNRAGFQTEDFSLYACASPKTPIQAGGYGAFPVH

Study 1 — read-out: enzyme activity; action: inhibitor; concentration: 0.5 µM; baseline: control
Target: Macrophage-stimulating protein receptor (MST1R, Homo sapiens, UniProt Q04912)
Chain of UniProt Q04912 (whole entry, looked up): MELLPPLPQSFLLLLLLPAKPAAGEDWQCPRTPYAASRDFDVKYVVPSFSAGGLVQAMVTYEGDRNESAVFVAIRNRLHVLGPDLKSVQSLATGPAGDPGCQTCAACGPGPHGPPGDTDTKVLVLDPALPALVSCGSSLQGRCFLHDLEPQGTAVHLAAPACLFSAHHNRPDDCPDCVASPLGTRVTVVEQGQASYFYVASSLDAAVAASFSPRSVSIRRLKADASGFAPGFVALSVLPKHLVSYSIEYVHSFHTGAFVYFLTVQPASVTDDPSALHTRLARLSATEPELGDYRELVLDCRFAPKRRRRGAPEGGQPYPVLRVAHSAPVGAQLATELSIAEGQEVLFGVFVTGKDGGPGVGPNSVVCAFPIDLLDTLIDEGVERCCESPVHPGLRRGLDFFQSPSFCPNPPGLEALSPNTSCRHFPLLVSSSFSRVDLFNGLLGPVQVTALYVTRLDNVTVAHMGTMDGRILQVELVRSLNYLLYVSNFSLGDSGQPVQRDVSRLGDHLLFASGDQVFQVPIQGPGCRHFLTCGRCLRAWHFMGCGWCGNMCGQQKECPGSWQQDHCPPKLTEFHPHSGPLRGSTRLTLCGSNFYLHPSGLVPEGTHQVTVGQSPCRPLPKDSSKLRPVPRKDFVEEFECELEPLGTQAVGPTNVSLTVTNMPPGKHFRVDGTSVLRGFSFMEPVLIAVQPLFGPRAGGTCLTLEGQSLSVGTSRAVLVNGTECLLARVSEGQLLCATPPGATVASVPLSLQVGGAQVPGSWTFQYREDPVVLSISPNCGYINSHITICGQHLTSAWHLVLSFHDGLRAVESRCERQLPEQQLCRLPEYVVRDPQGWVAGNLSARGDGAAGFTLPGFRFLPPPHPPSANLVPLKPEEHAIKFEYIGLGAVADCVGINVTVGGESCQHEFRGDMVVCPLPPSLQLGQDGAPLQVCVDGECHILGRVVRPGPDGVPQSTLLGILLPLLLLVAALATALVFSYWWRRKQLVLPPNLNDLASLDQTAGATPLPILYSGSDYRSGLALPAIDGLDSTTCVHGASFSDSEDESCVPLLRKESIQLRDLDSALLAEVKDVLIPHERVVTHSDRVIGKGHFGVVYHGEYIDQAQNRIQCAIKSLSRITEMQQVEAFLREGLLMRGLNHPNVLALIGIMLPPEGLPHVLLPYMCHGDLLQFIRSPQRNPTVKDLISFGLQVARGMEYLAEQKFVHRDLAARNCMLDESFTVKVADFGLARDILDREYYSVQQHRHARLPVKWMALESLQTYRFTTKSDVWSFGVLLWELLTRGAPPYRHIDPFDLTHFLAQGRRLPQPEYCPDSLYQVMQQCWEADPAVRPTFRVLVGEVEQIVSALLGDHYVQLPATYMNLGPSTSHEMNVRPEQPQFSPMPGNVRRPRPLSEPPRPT
With `O=C(Nc1cccc(Nc2cc(Nc3cccc(C(F)(F)F)c3)ncn2)c1)C1CC1` the remaining activity was 106%.
The remaining activity of `Cn1c2ccccc2c2c3c(c4c5ccccc5n(CCC#N)c4c21)CNC3=O` is reported as 111%.
The remaining activity of `Oc1ccc(-c2nc(-c3ccncc3)c(-c3ccc(F)cc3)[nH]2)cc1` is reported as 102%.
`Nc1[nH]nc2nc3ccccc3nc12` has a remaining activity of 105%.
With `O=C1NC(=O)C(c2cn(CCCO)c3ncccc23)=C1c1cnccn1` the remaining activity was 96.1%.
`O=C(O)c1ccc2c3c1cccc3c(=O)n1c3ccccc3nc21` has a remaining activity of 100%.
The remaining activity of `COc1ccc(C(=O)Nc2sc3c(c2C(N)=O)CCCC3)cc1OC` is reported as 105%.
For `Cc1nc(-c2ccccc2)c(-c2ccncc2)o1`, the remaining activity was 95.9%.
`O=c1c2ccccc2[nH]c(=S)n1CCN1CCC(=C(c2ccc(F)cc2)c2ccc(F)cc2)CC1` gave a remaining activity of 103%.
The remaining activity of `COc1cc2ncnc(Nc3ccc(F)c(Cl)c3)c2cc1OCCCN1CCOCC1` is reported as 97.7%.
`CO[C@H]1C[C@@H]2CC[C@@H](C)[C@@](O)(O2)C(=O)C(=O)N2CCCC[C@H]2C(=O)O[C@H]([C@H](C)C[C@@H]2CC[C@@H](O)[C@H](OC)C2)CC(=O)[C@H](C)/C=C(\C)[C@@H](O)[C@@H](OC)C(=O)[C@H](C)C[C@H](C)/C=C/C=C/C=C/1C` has a remaining activity of 97%.
The remaining activity of `NCCNc1ncc(C(N)=O)c(Nc2cccc(C(F)(F)F)c2)n1` is reported as 91%.
With `OCC(O)CCON=C1C(c2c(O)[nH]c3ccccc23)=Nc2ccccc21` (stereo not shown) the remaining activity was 101%.
For `O=C(CCCc1ccc(-c2ccccc2F)cc1)Nc1ccc(O)cc1`, the remaining activity was 106%.
`COc1ccc(OC)c2c(=S)c3ccccc3[nH]c12` gave a remaining activity of 87.9%.
`C#Cc1cccc(Nc2ncnc3cc(OCCOC)c(OCCOC)cc23)c1` gave a remaining activity of 93.6%.

Study 2 — action: inhibitor; concentration: 5 µM
SMILES: O=C1NC(=O)C(c2cn(-c3ccccc3)nc2-c2ccc(F)cc2)N1 (stereo not shown)
The “log2 fold change” was -0.512 (IGF1R (Homo sapiens, UniProt P08069); cell-based kinome screen; human cells; baseline: vehicle).
BRAF (Homo sapiens, UniProt P15056, G469E); cell-based kinome profiling; human cells; baseline: vehicle control — “log2 fold change”: -0.009.
TSSK1B (Homo sapiens, UniProt Q9BXA7); kinase–CDC37 interaction; kinome plate 2@D08; baseline: vehicle — “log2 fold change”: -0.314.

Study 3 — concentration: 1 µM; baseline: DMSO
Structure (SMILES): CC(=O)NCC(=O)N1[C@@H]2CC[C@H]1c1ccc(Nc3ncc(C(F)(F)F)c(NC4CCC4)n3)cc12
It gave 8.3% for viability (normal adjacent epithelium organoid sample F; CellTiter-Glo).
For normal adjacent epithelium organoid sample H; CellTiter-Glo: viability read 14.8%.
For normal adjacent epithelium organoid sample G; CellTiter-Glo: viability read 11.6%.
It gave 16.3% for viability (normal adjacent epithelium organoid sample D; CellTiter-Glo).
The viability was 26.2% (normal adjacent epithelium organoid sample E; CellTiter-Glo).
colorectal tumour organoids — viability: 34.8%.

Study 4 — method: phase 2a trial; species: idiopathic pulmonary fibrosis patients
Structure (SMILES): CC(C)n1cnc(-c2ccc(F)cc2)c1-c1ncc(C(=O)Nc2ccc(N3CCN(C)CC3)cc2)[nH]1
dose not given, adverse event grade 2, all dose arms pooled — “patients with abdominal discomfort”: 0%.
The “patients with abdominal discomfort” was 0% (dose not given, adverse event grade 3, all dose arms pooled).
For dose not given, adverse event grade 5, all dose arms pooled: “patients with abdominal discomfort” read 0%.
60 mg once daily, adverse event grade 1 — “patients with abdominal discomfort”: 0%.
It gave 0% for “patients with abdominal discomfort” (30 mg once daily, adverse event grade 4).
It gave 0% for “patients with abdominal discomfort” (60 mg once daily, adverse event grade 3).

Study 5 — medium: plasma; route: oral
Structure (SMILES): COc1ccc(-c2c(Nc3ccccn3)[nH]c3c(C4=CCCCC4)c(-c4ccccc4)nn3c2=O)cc1
For human patients; 400 mg once daily, 0 h, cycle 1: “plasma concentration, geometric mean” read 2370 ng/mL.
The “plasma concentration, geometric mean” was 376 ng/mL (cancer patients; 50 mg, 8 h post-dose, single dose).
human patients; 100 mg once daily, 24 h, cycle 1 — “plasma concentration, geometric mean”: 2310 ng/mL.
cancer patients; 200 mg, 4 h post-dose, single dose — “plasma concentration, geometric mean”: 1210 ng/mL.
The “plasma concentration, geometric mean” was 1590 ng/mL (LC-MS/MS; human; 50 mg once daily, 8 h, cycle 1).
human patients; 200 mg once daily, 6 h, cycle 1 — “plasma concentration, geometric mean”: 4870 ng/mL.

Some of these lines once more (study 2):
The “log2 fold change” was -0.512 (IGF1R (Homo sapiens, UniProt P08069); cell-based kinome screen; human cells; baseline: vehicle).
TSSK1B (Homo sapiens, UniProt Q9BXA7); kinase–CDC37 interaction; kinome plate 2@D08; baseline: vehicle — “log2 fold change”: -0.314.
